Assay results from different studies.
Compare with care: the assays were run in different laboratories.

SMILES	assay	test system	setting	scale	quantity	result
COc1ccc(C(C)(C)c2cnc(SCCOc3ccc(-n4ccnc4)cc3)n2-c2ccc(F)cc2)cc1OC	CYP1A2 induction, inducer, measured: CYP1A2 mRNA	sandwich-cultured human hepatocytes	48 h	–	EC50	5.3 µM
CO[C@H]1C[C@@H]2CC[C@@H](C)[C@@](O)(O2)C(=O)C(=O)N2CCCC[C@H]2C(=O)O[C@H]([C@H](C)C[C@@H]2CC[C@@H](OC(=O)NCCOCCOCCOCCOCCOCCOCCOCCOCCC(=O)N3CCc4cc(Cn5nc(-c6ccc7oc(N)nc7c6)c6c(N)ncnc65)ccc4C3)[C@H](OC)C2)C[C@@H](O)[C@H](C)/C=C(\C)[C@@H](O)[C@@H](OC)C(=O)[C@H](C)C[C@H](C)/C=C/C=C/C=C/1C	–	patients with advanced solid tumours	intravenous, 1.6 mg/3 mg weekly, any grade	–	incidence of Vomiting TEAE	20%
C[C@@H]1[C@H](O)[C@@H](C)/C=C/C=C/CC/C=C/C=C/C=C/C=C/C(O[C@H]2O[C@H](C)[C@@H](O)[C@H](N)[C@@H]2O)CC2O[C@](O)(CC(O)C(O)CCC(O)CC(O)CC(O)CC(=O)O[C@H]1C)CC(O)C2C(=O)O (some centres unmarked)	–	mouse, bilateral renal I/R AKI	iv, 0.1 µmol/kg, within 24 h	–	mortality	50%
COc1ccc(-c2c(-c3ccc(C#N)c(F)c3)nc(N3CCC(N)CC3)n(C)c2=O)cc1F	measured: decreased appetite	relapsed/refractory MZL patients	oral, 60 mg, dose expansion	–	grade 3-4 TRAE incidence	0%
Nc1nc2cc(-c3ccc4ncc(C(=O)N5CCOCC5)n4c3)ccc2o1	–	advanced solid tumour patients	dose not given, drug-related, once-daily dosing	baseline: patients	grade ≥3 hyperglycaemia	0%
O=c1ccc2c(OCCCCOc3ccccc3)c3ccoc3cc2o1	–	male and female Lewis rats	oral gavage, 50 mg/kg daily, 6 months	–	hematology and blood chemistry	no effect
CCN1[C@@H](C(=O)NC23CCC(C(=O)O)(CC2)CC3)[C@H](c2cccc(Cl)c2F)[C@]2(C(=O)Nc3cc(Cl)ccc32)C12CCCCC2	–	patients with advanced solid tumours	oral, 150 mg	–	Lymphocytopenia incidence	62.5%
Cc1ccc(F)c2cc(C(=O)N[C@@H]3CCC[C@H](N4CC[C@H](N(C)S(C)(=O)=O)C4)C3)[nH]c12	–	CD1 mouse, plasma	oral, 30 mg/kg, 2 h	–	plasma concentration	543 ng/mL
COc1ncccc1-c1cnn2ccc(N3CCN(C(=O)OC(C)C)CC3)nc12	–	mouse, open field test, plasma	oral, 60 mg/kg, 60 min	–	drug concentration	15 µM
COc1cc2c(Oc3ccc4[nH]c(C)cc4c3F)ccnc2cc1OCC1(N)CC1	–	paediatric recurrent refractory sarcoma	8 mg	–	Vomiting incidence	0%
CC(C)[C@H](O)C(=O)N[C@H]1Cc2ccc3c(c2)[C@]2(C4=C(c5nc(CO)co5)N=C(O4)[C@H](C(C)(C)C)NC1=O)c1cc(F)ccc1N[C@@H]2O3	–	NSG mice, plasma	intravenous, 10 mg/kg, single dose at MTD, added: paclitaxel 40 mg/kg	–	Cmax	1580 ng/mL
O=S(=O)([O-])C(F)(F)C(F)(F)C(F)(F)C(F)(F)C(F)(F)C(F)(F)C(F)(F)C(F)(F)F.[K+]	RT-qPCR, measured: Cyp3a11	mouse, ethanol-fed, liver	dose not given	baseline: efavirenz	mRNA level	increased
COc1ccc2nc3cc(Cl)ccc3c(Nc3cc(CN4CCCC4)c(O)c(CN4CCCC4)c3)c2n1	–	mouse, blood	oral, 57 mg/kg, tolerability, mean	–	plateletcrit	0.08%
[O-][S+]1CCc2nc(N3CCC(c4ncc(Cl)cn4)CC3)nc(NC3(CO)CCC3)c21 (centres unmarked)	measured: upper abdominal pain	healthy male humans	6 mg twice daily	–	adverse event incidence	0%
